Measured values of several laboratories.
Compare with care: the assays were run in different laboratories. ± marks the error that the study gave. In brackets after ≈: the same amount, converted by molar mass.
Chain of UniProt P05177 (whole entry, looked up): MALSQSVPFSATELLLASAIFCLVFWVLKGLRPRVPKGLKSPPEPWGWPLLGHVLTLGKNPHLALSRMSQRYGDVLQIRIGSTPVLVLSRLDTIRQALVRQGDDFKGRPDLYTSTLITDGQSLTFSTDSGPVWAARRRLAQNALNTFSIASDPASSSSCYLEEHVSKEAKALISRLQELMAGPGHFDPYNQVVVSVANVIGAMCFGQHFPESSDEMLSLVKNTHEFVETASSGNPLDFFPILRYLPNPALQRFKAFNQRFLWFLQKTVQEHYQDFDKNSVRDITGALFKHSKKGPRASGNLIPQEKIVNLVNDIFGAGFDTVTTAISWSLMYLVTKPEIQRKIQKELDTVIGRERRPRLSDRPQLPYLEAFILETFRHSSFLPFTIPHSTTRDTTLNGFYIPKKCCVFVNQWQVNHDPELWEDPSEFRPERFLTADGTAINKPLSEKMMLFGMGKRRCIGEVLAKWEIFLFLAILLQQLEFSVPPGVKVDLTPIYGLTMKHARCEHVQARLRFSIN

COc1ccc(C2CC(c3ccc(C)cc3)=Nc3ccccc3S2)cc1OC (stereo not shown)
body weight (Wistar rat, STZ-induced diabetes; oral, 10 mg/kg once daily, day 14): 177 ± 4.51 g

[64Cu+2].c1ccc(CNCc2ccc(CN3CCCN4CCNCCCN(CC4)CC3)cc2)nc1
tissue uptake (CXCR4; NOD/SCID mouse, U87 and U87-stb-CXCR4 xenografts, spleen; iv, 60 min, ex vivo): 18.6 ± 1.23 %ID/g

O=C(CCCN1C(=O)c2cccc3cccc(c23)C1=O)NO
oocyst excretion (Cryptosporidium parvum; SCID mouse; oral, in diet, 10 mg/kg once daily; relative to: untreated infected): decreased

COc1ccc2occ(/C=C/C(=O)N3CCN(C(=S)SCCN(C)C)CC3)c(=O)c2c1
inactivation effect (tomato spotted wilt virus; viral infection, half-leaf method; Nicotiana glutinosa; 500 µg/mL): 63.7 ± 3.9%

Cc1cc(O)c(C=O)c2c1C(=O)Oc1c(CO)c(O)c3c(c1O2)C(O)OC3=O (stereo not shown)
Ejaculatory latency (copulatory behaviour test; rat, male, streptozotocin-induced diabetes; 10 mg/kg, day 63): 828 ± 58.5 s

Oc1cc(C(F)(F)F)ccc1-c1nc2c(C(F)(F)F)cc(C(F)(F)F)cc2[nH]1
colistin MIC (Klebsiella pneumoniae; colistin potentiator; KP F9, colistin-resistant; 5 µM): 0.5 µg/mL

[64Cu+2].c1cnc(CNCc2ccc(CN3CCCN4CCNCCCN(CC4)CC3)cc2)nc1
tissue uptake (CXCR4; NOD/SCID mouse, U87 and U87-stb-CXCR4 xenografts, kidney; iv, 450 min, ex vivo): 25.4 ± 3.38 %ID/g

CN(C)CCCSC(=S)N1CCN(C(=O)/C=C/c2coc3cc(F)ccc3c2=O)CC1
inactivation effect (tomato spotted wilt virus; viral infection, half-leaf method; Nicotiana glutinosa; 500 µg/mL): 67.3 ± 7.4%

CCCC[C@H](NC(=O)CNC(=O)CNC(=O)CN1CCN(CC(=O)O)CCN(CC(=O)O)CCN(CC(=O)O)CC1)C(=O)N[C@H]1CC(=O)NCCCC[C@@H](C(N)=O)NC(=O)[C@H](Cc2c[nH]c3ccccc23)NC(=O)[C@H](CCCNC(=N)N)NC(=O)[C@@H](Cc2ccccc2)NC(=O)[C@H](Cc2c[nH]cn2)NC1=O [lutetium-177 labelled]
tissue uptake (C57 mouse, female, stomach; intravenous, 0.037 MBq, 4 h): 1.22 ± 0.27 %ID/g

CC/C=C\C/C=C\C/C=C\C/C=C\C/C=C\CCCCOC(CC)C(=O)O (stereo not shown)
hepatic ceramides (APOE*3Leiden.CETP mice, high-fat/cholesterol diet; dose not given, 20 weeks; relative to: control): decreased

C=CC(=O)Nc1cc(Nc2nccc(-c3cn(C)c4ccccc34)n2)c(OCC(F)(F)F)nc1N(C)CCN(C)C
activity vs control (Cytochrome P450 1A2 (CYP1A2, Homo sapiens, UniProt P05177); enzyme activity, inhibitor; human, liver microsomes; 1 µM): 91.2%

CC(=O)OC[C@H]1O[C@@H](Sc2sc(C(=O)c3ccc(C)cc3)c(N)c2-c2nc3ccccc3s2)[C@H](OC(C)=O)[C@@H](OC(C)=O)[C@H]1OC(C)=O
growth (SNB-75; SRB; 10 µM, 48 h; relative to: untreated): 55.7%

Oc1ccc(C(F)(F)F)cc1-c1nc2c(Cl)cc(Cl)cc2[nH]1
colistin MIC (Klebsiella pneumoniae; colistin potentiator; KP F3, colistin-resistant; 5 µM): 2 µg/mL

CN1C(=O)[C@@H](Cc2ccc(O)cc2)NC(=O)CNC(=O)[C@H](Cc2ccc3ccccc3c2)NC(=O)[C@H](CCCNC(=N)N)NC(=O)[C@H]1CCCNC(=O)c1ccc(CNC(=O)CN2CCN(CC(=O)O)CCN(CC(=O)O)CCN(CC(=O)O)CC2)cc1 [gallium-68 labelled]
absorbed dose coefficient (extrapolated to adult male; C57BL/6 mice, liver): 0.0212 ± 0.0075 mGy/MBq

O=Cc1c(O)ccc2ccccc12
log2 fold change (HUVEC; RNA sequencing, refers to: TSLP; 75 µM, 24 h; relative to: DMSO): 3.82

COc1ccc(C2CC(c3ccc(C)cc3)=Nc3ccccc3S2)cc1 (stereo not shown)
AST (SGOT) (Wistar rat, STZ-induced diabetes, serum; 10 mg/kg, 28 days): 24 ± 2.11 IU/L

CCN(CC)CCSC(=S)N1CCN(C(=O)/C=C/c2coc3ccc(OC)cc3c2=O)CC1
EC50 (tomato spotted wilt virus; virus inactivation, half-leaf method; Nicotiana glutinosa; tested 31.25 to 500 µg/mL): 162 ± 9.7 µg/mL (≈ 332 µM)

O=C1CC(c2ccc(O)cc2)Oc2cc(O)cc([O][Ga+][O]c3cc(O)cc4c3C(=O)CC(c3ccc(O)cc3)O4)c21 (stereo not shown)
bacterial load reduction (Pseudomonas aeruginosa; PAO1, mouse wound infection model; topical, 2 mg/kg twice daily, 48 h post-infection; relative to: control group): ~3 log CFU

CN(C)CCCSC(=S)N1CCN(C(=O)/C=C/c2coc3ccc(F)cc3c2=O)CC1
curative effect (tomato spotted wilt virus; viral infection, half-leaf method; Nicotiana glutinosa; 500 µg/mL): 60.7 ± 3.5%

N=C(N)NCCC[C@@H]1NC(=O)[C@H](Cc2c[nH]c3ccccc23)NC(=O)[C@@H](CC2CCCCC2)NC(=O)[C@@H]2CCCN2C(=O)[C@@H](NC(=O)CCc2ccccc2)CCCNC1=O
Cmax (C57BL/6J mice, brain; subcutaneous, 1 mg/kg): 162 ng/g

CCSC(=S)N1CCN(C(=O)/C=C/c2coc3ccccc3c2=O)CC1
inactivation effect (tomato spotted wilt virus; viral infection, half-leaf method; Nicotiana glutinosa; 500 µg/mL): 54.1 ± 4.3%

Cc1cc([C@H](C(=O)N2C[C@H](O)C[C@H]2C(=O)N[C@@H](CC(=O)N2CCC(N3CCC(C#Cc4ccc(C(=O)N[C@H]5C(C)(C)[C@H](Oc6ccc(C#N)c(Cl)c6)C5(C)C)cc4)CC3)CC2)c2ccc(-c3scnc3C)cc2)C(C)C)on1
G2/M arrest concentration (MDA-MB-453; flow cytometry; 72 h): 0.5 µM

Some of these lines once more:
CC(=O)OC[C@H]1O[C@@H](Sc2sc(C(=O)c3ccc(C)cc3)c(N)c2-c2nc3ccccc3s2)[C@H](OC(C)=O)[C@@H](OC(C)=O)[C@H]1OC(C)=O
growth (SNB-75; SRB; 10 µM, 48 h; relative to: untreated): 55.7%

O=Cc1c(O)ccc2ccccc12
log2 fold change (HUVEC; RNA sequencing, refers to: TSLP; 75 µM, 24 h; relative to: DMSO): 3.82

Oc1cc(C(F)(F)F)ccc1-c1nc2c(C(F)(F)F)cc(C(F)(F)F)cc2[nH]1
colistin MIC (Klebsiella pneumoniae; colistin potentiator; KP F9, colistin-resistant; 5 µM): 0.5 µg/mL
